Results pooled from the literature.
Parts stem from different laboratories: compare values within a part only. Substitutions count along the parent as printed.
Sequence of UniProt P37023 (whole entry, looked up): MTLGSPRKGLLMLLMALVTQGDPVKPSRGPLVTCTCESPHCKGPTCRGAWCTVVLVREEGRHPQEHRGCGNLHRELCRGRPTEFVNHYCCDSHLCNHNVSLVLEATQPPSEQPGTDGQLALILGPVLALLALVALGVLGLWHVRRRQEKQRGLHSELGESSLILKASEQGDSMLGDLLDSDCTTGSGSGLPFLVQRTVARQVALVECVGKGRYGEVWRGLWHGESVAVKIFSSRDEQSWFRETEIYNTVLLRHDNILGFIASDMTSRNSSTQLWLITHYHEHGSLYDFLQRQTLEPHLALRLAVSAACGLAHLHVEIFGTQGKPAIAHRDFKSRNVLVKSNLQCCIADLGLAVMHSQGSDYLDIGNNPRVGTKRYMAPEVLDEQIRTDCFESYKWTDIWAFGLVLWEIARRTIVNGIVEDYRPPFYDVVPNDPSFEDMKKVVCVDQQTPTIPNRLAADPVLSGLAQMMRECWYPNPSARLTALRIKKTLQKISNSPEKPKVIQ
Sequence of UniProt Q00535 (whole entry, looked up): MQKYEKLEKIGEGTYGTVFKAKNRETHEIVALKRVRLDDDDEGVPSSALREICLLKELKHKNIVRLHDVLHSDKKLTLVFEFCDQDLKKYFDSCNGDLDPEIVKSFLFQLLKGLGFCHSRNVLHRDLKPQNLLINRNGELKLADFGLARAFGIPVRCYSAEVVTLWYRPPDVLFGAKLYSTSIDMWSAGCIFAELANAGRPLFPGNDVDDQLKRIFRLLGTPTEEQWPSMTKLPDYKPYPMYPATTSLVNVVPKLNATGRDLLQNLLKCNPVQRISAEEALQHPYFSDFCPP
Sequence of UniProt P51955 (whole entry, looked up): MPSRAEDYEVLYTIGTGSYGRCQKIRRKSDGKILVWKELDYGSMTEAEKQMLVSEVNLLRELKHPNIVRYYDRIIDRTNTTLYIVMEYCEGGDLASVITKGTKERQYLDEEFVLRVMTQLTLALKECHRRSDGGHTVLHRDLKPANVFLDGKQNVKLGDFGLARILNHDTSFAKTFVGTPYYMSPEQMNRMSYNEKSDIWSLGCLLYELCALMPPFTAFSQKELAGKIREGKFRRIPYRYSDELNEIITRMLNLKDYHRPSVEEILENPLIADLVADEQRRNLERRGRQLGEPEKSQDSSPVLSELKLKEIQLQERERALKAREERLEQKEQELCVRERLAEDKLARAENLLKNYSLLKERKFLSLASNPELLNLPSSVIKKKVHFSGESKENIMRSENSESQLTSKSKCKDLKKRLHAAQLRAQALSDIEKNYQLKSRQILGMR
Sequence of UniProt P53355 (whole entry, looked up): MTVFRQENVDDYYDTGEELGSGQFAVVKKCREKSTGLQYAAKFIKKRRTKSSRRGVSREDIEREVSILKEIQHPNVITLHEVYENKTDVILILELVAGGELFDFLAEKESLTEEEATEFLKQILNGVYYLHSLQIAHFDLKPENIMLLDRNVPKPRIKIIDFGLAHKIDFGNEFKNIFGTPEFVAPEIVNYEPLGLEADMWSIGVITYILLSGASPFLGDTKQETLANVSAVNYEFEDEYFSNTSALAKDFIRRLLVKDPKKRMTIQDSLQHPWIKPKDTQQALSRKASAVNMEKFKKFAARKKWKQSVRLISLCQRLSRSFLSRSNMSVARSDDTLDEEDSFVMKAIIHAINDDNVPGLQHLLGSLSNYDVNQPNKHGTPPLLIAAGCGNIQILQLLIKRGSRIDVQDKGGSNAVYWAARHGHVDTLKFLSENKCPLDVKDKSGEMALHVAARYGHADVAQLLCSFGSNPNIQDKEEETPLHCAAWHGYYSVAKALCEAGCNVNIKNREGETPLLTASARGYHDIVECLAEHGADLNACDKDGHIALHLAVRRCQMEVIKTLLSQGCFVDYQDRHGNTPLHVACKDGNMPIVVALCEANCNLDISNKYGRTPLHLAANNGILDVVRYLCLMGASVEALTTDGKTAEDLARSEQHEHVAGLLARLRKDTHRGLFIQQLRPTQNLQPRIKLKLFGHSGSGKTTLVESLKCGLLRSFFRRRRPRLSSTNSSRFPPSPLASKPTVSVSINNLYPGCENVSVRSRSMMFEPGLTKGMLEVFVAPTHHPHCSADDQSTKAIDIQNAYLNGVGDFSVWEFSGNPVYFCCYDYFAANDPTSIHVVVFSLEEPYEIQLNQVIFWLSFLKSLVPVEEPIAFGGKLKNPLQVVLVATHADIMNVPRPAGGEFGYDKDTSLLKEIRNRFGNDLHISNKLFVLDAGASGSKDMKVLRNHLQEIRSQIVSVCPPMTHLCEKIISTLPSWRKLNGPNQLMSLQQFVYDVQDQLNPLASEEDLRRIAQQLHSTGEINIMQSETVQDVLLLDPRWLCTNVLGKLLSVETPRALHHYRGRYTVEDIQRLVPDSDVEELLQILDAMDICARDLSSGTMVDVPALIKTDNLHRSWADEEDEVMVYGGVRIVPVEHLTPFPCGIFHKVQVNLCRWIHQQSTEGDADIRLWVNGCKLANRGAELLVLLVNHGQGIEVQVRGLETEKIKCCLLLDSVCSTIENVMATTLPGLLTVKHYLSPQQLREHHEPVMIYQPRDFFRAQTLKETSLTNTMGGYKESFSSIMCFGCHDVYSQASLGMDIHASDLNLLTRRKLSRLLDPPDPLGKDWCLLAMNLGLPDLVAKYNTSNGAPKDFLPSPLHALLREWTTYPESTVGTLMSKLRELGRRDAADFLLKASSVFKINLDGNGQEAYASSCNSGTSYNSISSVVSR
Sequence of UniProt O94804 (whole entry, looked up): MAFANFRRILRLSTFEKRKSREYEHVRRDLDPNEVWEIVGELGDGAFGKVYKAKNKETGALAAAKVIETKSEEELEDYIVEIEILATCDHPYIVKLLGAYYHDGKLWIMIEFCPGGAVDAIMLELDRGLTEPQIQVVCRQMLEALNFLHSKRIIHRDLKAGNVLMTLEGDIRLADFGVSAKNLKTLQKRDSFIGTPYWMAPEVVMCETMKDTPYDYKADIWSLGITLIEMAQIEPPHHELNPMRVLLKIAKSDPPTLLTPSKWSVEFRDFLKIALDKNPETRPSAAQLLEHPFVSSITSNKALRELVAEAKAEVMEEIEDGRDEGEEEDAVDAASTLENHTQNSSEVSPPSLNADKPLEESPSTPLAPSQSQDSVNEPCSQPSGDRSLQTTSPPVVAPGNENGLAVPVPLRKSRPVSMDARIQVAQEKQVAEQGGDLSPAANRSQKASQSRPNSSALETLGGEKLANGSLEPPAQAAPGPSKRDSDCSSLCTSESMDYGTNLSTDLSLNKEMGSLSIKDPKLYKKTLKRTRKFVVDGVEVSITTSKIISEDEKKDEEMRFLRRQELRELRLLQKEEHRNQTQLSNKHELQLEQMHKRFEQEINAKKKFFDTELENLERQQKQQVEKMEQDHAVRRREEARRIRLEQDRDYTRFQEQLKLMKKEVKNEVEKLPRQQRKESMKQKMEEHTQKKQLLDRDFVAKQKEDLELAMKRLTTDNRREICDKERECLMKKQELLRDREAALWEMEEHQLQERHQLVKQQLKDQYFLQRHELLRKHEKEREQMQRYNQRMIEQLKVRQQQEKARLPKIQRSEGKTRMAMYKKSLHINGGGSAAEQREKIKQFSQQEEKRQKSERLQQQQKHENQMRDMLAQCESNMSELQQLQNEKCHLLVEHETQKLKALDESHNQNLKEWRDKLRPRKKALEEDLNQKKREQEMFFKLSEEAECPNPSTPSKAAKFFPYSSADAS
Sequence of UniProt P11802 (whole entry, looked up): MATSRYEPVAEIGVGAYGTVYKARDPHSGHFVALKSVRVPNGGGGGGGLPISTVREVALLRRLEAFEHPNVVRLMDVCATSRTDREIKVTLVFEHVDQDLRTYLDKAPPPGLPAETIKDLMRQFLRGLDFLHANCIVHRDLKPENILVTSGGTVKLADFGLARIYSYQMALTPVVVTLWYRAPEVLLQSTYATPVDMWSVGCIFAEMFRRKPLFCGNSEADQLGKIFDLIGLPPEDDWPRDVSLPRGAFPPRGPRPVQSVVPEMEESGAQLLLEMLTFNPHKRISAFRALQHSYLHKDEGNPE

Set 1 — SMILES: O=C1Nc2ccccc2/C1=C\c1c(Cl)[nH]c2ccccc12; effect on: enzyme activity; action: inhibitor; concentration: 0.5 µM; reference: control
target	remaining activity [%]
Death-associated protein kinase 1 (DAPK1, Homo sapiens, UniProt P53355)	88.1
STE20/SPS1-related proline-alanine-rich protein kinase (STK39, Homo sapiens, UniProt Q9UEW8)	104
TGF-beta receptor type-2 (TGFBR2, Homo sapiens, UniProt P37173)	95.6
G protein-coupled receptor kinase 3 (GRK3, Homo sapiens, UniProt P35626)	90.1
Inhibitor of nuclear factor kappa-B kinase subunit beta (IKBKB, Homo sapiens, UniProt O14920)	106
cGMP-dependent protein kinase 1, isoform beta (PRKG1, Homo sapiens, UniProt Q13976)	93.6
Cyclin-dependent kinase 4, with cyclin D1 (CDK4, Homo sapiens, UniProt P11802)	98.4
Serine/threonine-protein kinase 10 (STK10, Homo sapiens, UniProt O94804)	90.9
Calcium/calmodulin-dependent protein kinase kinase 2 (CAMKK2, Homo sapiens, UniProt Q96RR4)	97.8
Serine/threonine-protein kinase OSR1 (OXSR1, Homo sapiens, UniProt O95747)	89.1
Tyrosine-protein kinase Lyn, isoform B (LYN, Homo sapiens, UniProt P07948)	93.6
Serine/threonine-protein kinase Chk2 (CHEK2, Homo sapiens, UniProt O96017)	99.4
Inhibitor of nuclear factor kappa-B kinase subunit epsilon (IKBKE, Homo sapiens, UniProt Q14164)	98
Protein kinase C alpha type (PRKCA, Homo sapiens, UniProt P17252)	63.2
Serine/threonine-protein kinase STK11 (STK11, Homo sapiens, UniProt Q15831)	83.4
Calcium/calmodulin-dependent protein kinase type II subunit delta (CAMK2D, Homo sapiens, UniProt Q13557)	86.7
cAMP-dependent protein kinase catalytic subunit alpha (PRKACA, Homo sapiens, UniProt P17612)	102
Serine/threonine-protein kinase Nek2 (NEK2, Homo sapiens, UniProt P51955)	99
Death-associated protein kinase 2 (DAPK2, Homo sapiens, UniProt Q9UIK4)	96.8
TGF-beta receptor type-1 (TGFBR1, Homo sapiens, UniProt P36897)	94.4
Mitogen-activated protein kinase 9 (MAPK9, Homo sapiens, UniProt P45984)	101
Protein kinase C beta type, isoform beta-I (PRKCB, Homo sapiens, UniProt P05771)	105
Mitogen-activated protein kinase kinase kinase 3 (MAP3K3, Homo sapiens, UniProt Q99759)	112
Cyclin-dependent kinase 5, with p25 (CDK5, Homo sapiens, UniProt Q00535)	86

Set 2 — method: aptamer microarray, sandwich; form: DNA with 2'F-ANA; matrix: in vitro; concentration: 200 nM; with: Cy3 exosite-II aptamer, 400 nM; direction: higher = stronger binding; oligonucleotide: GGTTGGTGTGGTTGG
Target: Prothrombin, mature alpha-thrombin (F2, Homo sapiens, UniProt P00734)
Setting: whole 15-mer aptamer, many near background
Modification	mean fluorescence intensity
2'F-ANA at 1 5 6 7 12 13 14 15	47.6 a.u.
2'F-ANA at 1 2 3 5 6 7 8 9 14	96.6 a.u.
2'F-ANA at 1 2 4 6 7 9 10 11	50.4 a.u.
2'F-ANA at 1 2 9 10 13 14	45.2 a.u.
2'F-ANA at 3 6 8 9 10 11 12 14	342 a.u.
2'F-ANA at 5 10 11 13	43.2 a.u.
2'F-ANA at 6 8 9 12 14 15	213 a.u.
2'F-ANA at 1 2 4 5 6 10 11 13 14 15	51.1 a.u.

Set 3 — method: universal PBM; form: double-stranded DNA, one strand shown; matrix: in vitro; concentration: 600 nM; direction: higher = stronger binding
Target: Sal-like protein 4, full length isoform A (SALL4, Homo sapiens, UniProt Q9UJQ4, residues 1-1053)
Sequence of UniProt Q9UJQ4 (whole entry, looked up): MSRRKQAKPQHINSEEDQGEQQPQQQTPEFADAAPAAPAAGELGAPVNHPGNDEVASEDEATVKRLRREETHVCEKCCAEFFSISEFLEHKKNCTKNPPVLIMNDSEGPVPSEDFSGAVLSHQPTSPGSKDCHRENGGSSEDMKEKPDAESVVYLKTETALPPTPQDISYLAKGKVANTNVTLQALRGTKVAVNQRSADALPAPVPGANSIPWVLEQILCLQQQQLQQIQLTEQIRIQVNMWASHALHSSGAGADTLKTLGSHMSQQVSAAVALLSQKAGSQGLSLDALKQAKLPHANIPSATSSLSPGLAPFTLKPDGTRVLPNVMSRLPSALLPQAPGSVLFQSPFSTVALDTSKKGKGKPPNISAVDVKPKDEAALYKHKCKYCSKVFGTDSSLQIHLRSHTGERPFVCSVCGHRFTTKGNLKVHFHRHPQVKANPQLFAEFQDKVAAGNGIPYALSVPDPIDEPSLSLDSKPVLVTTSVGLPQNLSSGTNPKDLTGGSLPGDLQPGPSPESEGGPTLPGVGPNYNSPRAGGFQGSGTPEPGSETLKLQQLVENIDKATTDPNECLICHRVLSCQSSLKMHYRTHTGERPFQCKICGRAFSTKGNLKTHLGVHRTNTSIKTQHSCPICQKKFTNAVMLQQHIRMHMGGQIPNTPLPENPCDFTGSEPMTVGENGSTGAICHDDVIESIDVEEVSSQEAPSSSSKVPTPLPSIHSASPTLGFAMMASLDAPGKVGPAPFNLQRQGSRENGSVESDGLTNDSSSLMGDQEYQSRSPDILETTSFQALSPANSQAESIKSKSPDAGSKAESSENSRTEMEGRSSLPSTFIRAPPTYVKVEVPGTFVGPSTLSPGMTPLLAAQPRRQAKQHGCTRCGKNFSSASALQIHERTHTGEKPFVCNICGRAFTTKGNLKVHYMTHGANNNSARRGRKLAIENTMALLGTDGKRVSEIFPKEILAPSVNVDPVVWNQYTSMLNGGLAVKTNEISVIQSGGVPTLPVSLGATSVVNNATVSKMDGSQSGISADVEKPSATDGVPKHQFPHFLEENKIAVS
Setting: 8-mer, flanks averaged, mean of replicates
Oligonucleotide	E-score
CATCCCGC	-0.217
CATCACGG	-0.0648
CGCTGGCC	-0.428
GGATCGAC	-0.226
CAAAATCG	0.171
TGAAAGAA	0.258
TCTCTACA	0.145
AAACAGCG	0.134

Set 4 — target: NFE2L1, bZIP domain (human); method: DHFR protein complementation; matrix: yeast; reference: wild-type JUN-FOS pair; direction: higher = stronger binding
Setting: single substitutions, most at no-binding floor
Starting sequence: JUN, bZIP domain (human); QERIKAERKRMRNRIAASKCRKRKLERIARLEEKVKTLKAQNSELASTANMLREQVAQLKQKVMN; partner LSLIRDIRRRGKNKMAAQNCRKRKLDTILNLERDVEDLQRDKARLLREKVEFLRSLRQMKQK
Change	binding fitness [natural log]
A46H	-1.59
L59G	-1.42
E33K	-1.46
I28D	-1.53
A49K	-1.48
A49W	-1.53
T48M	-1.26
K34G	-1.53

Set 5 — method: competition with immobilised ligand; concentration: 1 µM
Structure (SMILES): COc1cc(-c2cn(C3CCc4ccccc4N(CC(F)(F)F)C3=O)nn2)ccc1-n1ccc(C)n1 (stereo not drawn)
target	test	remaining binding [%]
Insulin receptor (INSR, Homo sapiens, UniProt P06213)	cell-free assay	69
Activin receptor type-1-like (ACVRL1, Homo sapiens, UniProt P37023)	binding	100
Atypical kinase COQ8A, mitochondrial (COQ8A, Homo sapiens, UniProt Q8NI60)	cell-free assay	100
Rhodopsin kinase GRK1 (GRK1, Homo sapiens, UniProt Q15835)	cell-free assay	80
5'-AMP-activated protein kinase catalytic subunit alpha-1 (PRKAA1, Homo sapiens, UniProt Q13131)	cell-free assay	100
Serine/threonine-protein kinase WNK1 (WNK1, Homo sapiens, UniProt Q9H4A3)	cell-free assay	100

Repeated from above (set 5):
target	test	remaining binding [%]
5'-AMP-activated protein kinase catalytic subunit alpha-1 (PRKAA1, Homo sapiens, UniProt Q13131)	cell-free assay	100
Activin receptor type-1-like (ACVRL1, Homo sapiens, UniProt P37023)	binding	100
Rhodopsin kinase GRK1 (GRK1, Homo sapiens, UniProt Q15835)	cell-free assay	80
Insulin receptor (INSR, Homo sapiens, UniProt P06213)	cell-free assay	69
Serine/threonine-protein kinase WNK1 (WNK1, Homo sapiens, UniProt Q9H4A3)	cell-free assay	100
Atypical kinase COQ8A, mitochondrial (COQ8A, Homo sapiens, UniProt Q8NI60)	cell-free assay	100
